Experimental data collected from several papers.
Each line is one published result; not all experiments were run side by side. Values joined by “and” are separate records of one study, mostly repeats; a detail may differ.
UniProt Q9UM07, sequence (whole entry, looked up): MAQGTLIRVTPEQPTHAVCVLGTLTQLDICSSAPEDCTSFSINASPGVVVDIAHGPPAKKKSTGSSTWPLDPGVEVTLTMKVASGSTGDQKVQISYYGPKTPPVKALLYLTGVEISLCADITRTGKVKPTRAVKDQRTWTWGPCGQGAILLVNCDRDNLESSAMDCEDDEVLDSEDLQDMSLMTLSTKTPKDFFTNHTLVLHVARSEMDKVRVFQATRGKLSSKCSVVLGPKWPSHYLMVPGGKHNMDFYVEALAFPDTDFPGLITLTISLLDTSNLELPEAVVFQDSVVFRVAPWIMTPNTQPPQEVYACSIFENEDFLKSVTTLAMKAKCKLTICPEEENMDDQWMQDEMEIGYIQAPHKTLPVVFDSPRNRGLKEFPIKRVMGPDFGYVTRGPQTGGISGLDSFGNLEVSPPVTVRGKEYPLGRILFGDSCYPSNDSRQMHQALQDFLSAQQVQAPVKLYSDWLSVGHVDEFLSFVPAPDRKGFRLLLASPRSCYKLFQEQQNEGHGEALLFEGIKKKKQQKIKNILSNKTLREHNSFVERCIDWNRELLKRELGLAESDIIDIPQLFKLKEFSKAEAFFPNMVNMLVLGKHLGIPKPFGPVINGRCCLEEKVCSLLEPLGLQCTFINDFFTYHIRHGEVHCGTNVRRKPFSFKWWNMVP
UniProt Q15139, sequence (whole entry, looked up): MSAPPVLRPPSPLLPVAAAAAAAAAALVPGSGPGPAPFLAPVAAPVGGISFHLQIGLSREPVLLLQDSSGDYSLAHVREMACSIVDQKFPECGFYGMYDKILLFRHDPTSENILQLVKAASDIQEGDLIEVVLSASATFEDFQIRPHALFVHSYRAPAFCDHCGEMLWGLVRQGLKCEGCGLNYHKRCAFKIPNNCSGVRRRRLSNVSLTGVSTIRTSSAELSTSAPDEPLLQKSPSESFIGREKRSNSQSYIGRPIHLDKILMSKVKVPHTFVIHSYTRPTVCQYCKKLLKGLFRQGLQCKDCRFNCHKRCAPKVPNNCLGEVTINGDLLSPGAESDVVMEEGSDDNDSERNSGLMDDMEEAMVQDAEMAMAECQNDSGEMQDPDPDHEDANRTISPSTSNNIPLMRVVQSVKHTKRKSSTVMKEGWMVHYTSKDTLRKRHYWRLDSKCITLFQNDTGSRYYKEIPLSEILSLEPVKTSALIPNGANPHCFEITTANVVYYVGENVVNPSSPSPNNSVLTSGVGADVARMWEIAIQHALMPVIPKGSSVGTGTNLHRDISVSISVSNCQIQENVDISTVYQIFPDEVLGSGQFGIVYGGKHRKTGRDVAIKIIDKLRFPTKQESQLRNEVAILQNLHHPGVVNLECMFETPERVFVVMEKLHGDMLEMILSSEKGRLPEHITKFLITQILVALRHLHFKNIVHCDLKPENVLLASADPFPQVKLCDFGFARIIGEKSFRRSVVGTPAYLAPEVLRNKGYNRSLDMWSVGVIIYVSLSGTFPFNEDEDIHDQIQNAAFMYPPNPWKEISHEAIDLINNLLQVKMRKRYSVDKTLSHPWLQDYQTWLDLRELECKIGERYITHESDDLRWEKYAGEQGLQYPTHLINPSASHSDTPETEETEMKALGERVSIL
UniProt Q13526, sequence (whole entry, looked up): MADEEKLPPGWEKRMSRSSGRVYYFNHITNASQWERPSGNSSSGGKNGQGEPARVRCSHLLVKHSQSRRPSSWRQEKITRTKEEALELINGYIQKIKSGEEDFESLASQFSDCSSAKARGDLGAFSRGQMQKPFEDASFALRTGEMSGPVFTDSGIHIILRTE
UniProt Q05655, sequence (whole entry, looked up): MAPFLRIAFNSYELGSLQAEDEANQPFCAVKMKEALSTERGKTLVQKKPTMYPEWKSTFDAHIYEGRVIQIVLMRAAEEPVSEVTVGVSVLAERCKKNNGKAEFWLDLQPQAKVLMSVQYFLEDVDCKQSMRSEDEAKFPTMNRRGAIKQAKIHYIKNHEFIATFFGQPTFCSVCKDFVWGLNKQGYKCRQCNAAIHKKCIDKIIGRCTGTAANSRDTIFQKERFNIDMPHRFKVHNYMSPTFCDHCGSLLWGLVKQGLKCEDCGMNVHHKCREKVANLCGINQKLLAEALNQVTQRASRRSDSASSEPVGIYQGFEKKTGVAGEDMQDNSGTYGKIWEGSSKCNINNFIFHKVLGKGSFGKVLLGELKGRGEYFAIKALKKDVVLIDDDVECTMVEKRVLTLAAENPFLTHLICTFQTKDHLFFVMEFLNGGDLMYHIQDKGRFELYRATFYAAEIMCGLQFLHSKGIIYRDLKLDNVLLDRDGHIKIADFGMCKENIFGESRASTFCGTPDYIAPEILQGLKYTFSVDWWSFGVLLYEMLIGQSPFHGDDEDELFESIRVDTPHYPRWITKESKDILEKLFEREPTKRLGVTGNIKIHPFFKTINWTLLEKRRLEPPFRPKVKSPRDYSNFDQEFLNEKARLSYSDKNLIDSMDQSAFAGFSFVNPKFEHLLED
UniProt P48736, sequence (whole entry, looked up): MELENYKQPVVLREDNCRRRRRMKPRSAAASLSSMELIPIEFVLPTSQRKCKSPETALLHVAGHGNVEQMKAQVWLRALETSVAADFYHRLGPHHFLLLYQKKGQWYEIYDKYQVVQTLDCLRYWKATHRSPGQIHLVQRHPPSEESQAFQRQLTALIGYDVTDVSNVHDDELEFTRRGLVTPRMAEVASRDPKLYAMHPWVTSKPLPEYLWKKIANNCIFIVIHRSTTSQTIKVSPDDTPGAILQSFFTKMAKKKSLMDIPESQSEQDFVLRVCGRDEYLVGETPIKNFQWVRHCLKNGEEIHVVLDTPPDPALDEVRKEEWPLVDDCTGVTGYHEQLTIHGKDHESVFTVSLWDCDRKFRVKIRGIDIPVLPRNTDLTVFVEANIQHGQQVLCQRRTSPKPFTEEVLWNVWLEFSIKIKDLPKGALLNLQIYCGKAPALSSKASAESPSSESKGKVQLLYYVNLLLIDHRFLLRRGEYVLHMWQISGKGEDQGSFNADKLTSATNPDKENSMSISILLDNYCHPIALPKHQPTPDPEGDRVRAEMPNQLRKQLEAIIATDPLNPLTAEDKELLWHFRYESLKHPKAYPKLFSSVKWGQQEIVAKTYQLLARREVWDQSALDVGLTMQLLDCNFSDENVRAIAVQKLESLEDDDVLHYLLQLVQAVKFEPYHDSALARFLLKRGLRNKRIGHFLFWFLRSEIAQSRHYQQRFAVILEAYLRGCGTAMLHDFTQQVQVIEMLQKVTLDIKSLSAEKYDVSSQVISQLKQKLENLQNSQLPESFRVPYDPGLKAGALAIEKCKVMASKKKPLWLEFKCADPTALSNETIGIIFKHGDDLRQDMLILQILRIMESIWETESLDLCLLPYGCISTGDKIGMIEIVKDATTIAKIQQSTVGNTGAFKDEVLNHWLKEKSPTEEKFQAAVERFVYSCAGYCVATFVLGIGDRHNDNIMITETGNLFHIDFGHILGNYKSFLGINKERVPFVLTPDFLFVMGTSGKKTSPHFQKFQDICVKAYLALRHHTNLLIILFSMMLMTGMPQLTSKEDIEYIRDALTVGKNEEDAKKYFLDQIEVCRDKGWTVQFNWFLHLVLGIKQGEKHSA
UniProt P36107, sequence (whole entry, looked up): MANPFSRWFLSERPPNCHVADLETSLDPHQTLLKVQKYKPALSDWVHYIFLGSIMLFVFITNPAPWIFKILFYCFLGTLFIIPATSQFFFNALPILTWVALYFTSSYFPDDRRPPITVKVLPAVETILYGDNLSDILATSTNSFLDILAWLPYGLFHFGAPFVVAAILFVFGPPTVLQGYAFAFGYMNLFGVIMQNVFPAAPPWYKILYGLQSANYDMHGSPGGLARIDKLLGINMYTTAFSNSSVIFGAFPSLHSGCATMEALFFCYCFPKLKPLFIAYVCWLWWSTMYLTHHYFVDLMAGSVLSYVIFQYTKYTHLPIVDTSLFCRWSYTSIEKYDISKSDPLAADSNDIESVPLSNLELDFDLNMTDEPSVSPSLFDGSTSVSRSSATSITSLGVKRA
UniProt Q06346, sequence (whole entry, looked up): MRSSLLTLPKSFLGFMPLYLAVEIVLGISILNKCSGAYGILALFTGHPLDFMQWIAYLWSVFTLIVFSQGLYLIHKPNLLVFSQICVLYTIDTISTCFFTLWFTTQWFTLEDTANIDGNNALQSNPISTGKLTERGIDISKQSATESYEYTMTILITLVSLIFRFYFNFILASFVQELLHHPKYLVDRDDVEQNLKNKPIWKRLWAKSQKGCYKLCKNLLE
UniProt Q86Y07, sequence (whole entry, looked up): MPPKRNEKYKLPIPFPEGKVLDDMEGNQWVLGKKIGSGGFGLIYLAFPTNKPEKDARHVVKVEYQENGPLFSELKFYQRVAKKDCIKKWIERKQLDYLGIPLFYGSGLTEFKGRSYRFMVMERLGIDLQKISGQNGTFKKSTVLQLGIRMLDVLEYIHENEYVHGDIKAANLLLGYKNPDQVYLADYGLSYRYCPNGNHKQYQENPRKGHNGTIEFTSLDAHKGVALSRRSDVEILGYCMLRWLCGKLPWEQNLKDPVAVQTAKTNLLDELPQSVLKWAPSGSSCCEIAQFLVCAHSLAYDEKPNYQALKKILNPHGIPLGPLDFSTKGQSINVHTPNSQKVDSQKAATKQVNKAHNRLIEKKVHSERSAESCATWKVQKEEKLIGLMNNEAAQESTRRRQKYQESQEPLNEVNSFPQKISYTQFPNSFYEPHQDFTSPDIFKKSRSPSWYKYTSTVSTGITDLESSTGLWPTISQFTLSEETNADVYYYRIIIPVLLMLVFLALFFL
UniProt P0C264, sequence (whole entry, looked up): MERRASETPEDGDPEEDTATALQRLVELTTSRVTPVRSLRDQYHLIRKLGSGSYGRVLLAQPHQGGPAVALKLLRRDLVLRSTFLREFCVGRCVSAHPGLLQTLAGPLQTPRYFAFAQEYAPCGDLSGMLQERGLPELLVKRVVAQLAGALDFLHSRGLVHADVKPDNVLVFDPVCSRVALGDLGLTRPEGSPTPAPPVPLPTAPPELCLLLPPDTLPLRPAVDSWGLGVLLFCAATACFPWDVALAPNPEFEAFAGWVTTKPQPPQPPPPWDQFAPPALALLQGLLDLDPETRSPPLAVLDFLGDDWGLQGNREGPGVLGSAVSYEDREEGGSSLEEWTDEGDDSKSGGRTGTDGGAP

| SMILES | target | test | test system | setting | scale | endpoint | result |
| --- | --- | --- | --- | --- | --- | --- | --- |
| C[C@H](NCc1ccc(-c2ccc(C(F)(F)F)cc2)cc1)C(N)=O | NMDA receptor polyamine site, rat | binding, radioligand binding | biochemical | 1 µM, together with: [3H]ifenprodil 2.0 nM | – | inhibition | 2% |
| COc1ccccc1-c1n[nH]c2nc(N[C@H]3CC[C@H](NS(=O)(=O)CC(C)C)CC3)ncc12 | cdc2-related kinase 12 (Leishmania donovani, UniProt A0A3S7WQK2) | competitor, bead pull-down competition | Leishmania donovani extract | 0.08 µM | baseline: vehicle | remaining binding | 13% |
| CCc1n[nH]c(NC(=O)c2ccc3c(c2)nnn3C)n1 | Genome polyprotein, 3C protease (rhinovirus B14, UniProt P03303) | protease activity, SAMDI-MS | – | – | – | Hill slope | 1.34 |
| N[C@H](C(=O)N1CCCC1)C1CCN(c2nccc3c(-c4ncc(Cl)cc4Cl)cccc23)CC1 | PADI4 (Homo sapiens, UniProt Q9UM07) | thermal shift | – | 9.494 µM | – | melting temperature | 64.5 °C and 65 °C |
| O=C(N[C@@H]1c2ccccc2C[C@H]1N1CCCC1)c1ccc(-c2ccnc3[nH]ccc23)nc1 | SBK3 (Homo sapiens, UniProt P0C264) | binding, competition with immobilised ligand | – | 3 µM | – | remaining binding | 7.1% |
| CN1CC(=O)N[C@H](CC(=O)O)C(=O)N2CCCC[C@@H]2C(=O)N[C@@H](Cc2ccc3ccccc3c2)C(=O)N[C@@H](CCCNC(=N)N)C(=O)N[C@@H](CCCNC(=N)N)C(=O)N[C@H](Cc2ccccc2)C(=O)N[C@H]2CNC(=O)c3cc(cc(c3)C(=O)N3CCC[C@H]3C1=O)C(=O)NC[C@@H](C(=O)N[C@@H](CCCCNC(=S)Nc1ccc3c(c1)C(=O)OC31c3ccc(O)cc3Oc3cc(O)ccc31)C(N)=O)NC(=O)[C@H](CCCNC(=N)N)NC(=O)[C@H](CCCNC(=N)N)NC(=O)[C@H](CCCNC(=N)N)NC(=O)[C@H](CCCNC(=N)N)NC(=O)[C@H](Cc1ccc3ccccc3c1)NC(=O)[C@H](Cc1ccccc1)NC2=O | PIN1 (Homo sapiens, UniProt Q13526) | fluorescence anisotropy | – | concentration not given | baseline: parent peptide | binding affinity improvement | ~2 fold |
| CC(C)[C@H]1NC(=O)C[C@H]2/C=C/CCSSC[C@@H](NC1=O)C(=O)N[C@H](Cc1cccc3ccccc13)C(=O)NCC(=O)O2 | PRKD1 (Homo sapiens, UniProt Q15139) | enzyme activity, inhibitor | – | 10 µM | – | inhibition | 0.5% |
| CCOC(=O)[C@@H]1Cc2c(cc([N+](=O)[O-])cc2[N+](=O)[O-])[C@H](O)[C@]12C(=O)Nc1ccc(Br)cc12 | MARK3 (Homo sapiens, UniProt P27448) | binding, competition with immobilised ligand | – | 0.1 µM | – | remaining binding | 16% |
| O=C1NC(=O)c2c1c1cc(F)c[n+]3c1c1c2c2cc(O)ccc2[n]1[Ru-4]312([N]=C=S)[S+]3CC[S+]1CC[S+]2CC3 (stereo not shown) | PRKCD (Homo sapiens, UniProt Q05655) | enzyme activity | – | 100 nM, human enzyme, together with: 10 µM ATP | baseline: untreated | remaining activity | 73% |
| CC[C@@H](C)[C@@H]1NC(=O)[C@@H]2CCCN2C(=O)[C@H](Cc2ccccc2)N(C)C(=O)[C@H](Cc2ccccc2)NC(=O)[C@H](C(C)C)N(C)C(=O)[C@@H]([C@H](C)CC)OC(=O)[C@H](C(C)(C)O)N(C)C(=O)[C@H](CC(C)C)NC(=O)[C@H](C(C)C)N(C)C1=O | AUR1/KEI1 (Saccharomyces cerevisiae, UniProt P36107+Q06346) | enzyme activity, inhibitor | – | concentration not given | baseline: DMSO | normalized IPC synthase activity | 0 |
| CN(C)CCCSC(=S)N1CCN(C(=O)/C=C/c2coc3ccccc3c2=O)CC1 | Nucleoprotein (N, Tomato spotted wilt virus, UniProt P25999, R94A) | binding, microscale thermophoresis | – | 0.4883 µM | dose series | MST response | 842 a.u. |
| CN(C)[C@H]1C[C@@]23CC[C@@]4(O2)C(=CC[C@]2(C)[C@@H](c5ccc6ccncc6c5)CC[C@H]24)C=C3[C@@H](O)[C@@H]1O | VRK2 (Homo sapiens, UniProt Q86Y07) | ATP probe labelling, inhibitor, KiNativ profiling | – | 0.1 µM | – | inhibition | -0.2% |
| CS(C)(=O)=Nc1ccc(-c2ccc(-c3nc4cc(O[C@@H]5CO[C@H]6[C@@H]5OC[C@H]6O)[nH]c4cc3F)cc2)cc1 | PIK3CG (Homo sapiens, UniProt P48736) | enzyme activity, inhibitor | – | 10 µM | – | inhibition | 5% |

A few entries again:
| SMILES | target | test | test system | setting | scale | endpoint | result |
| --- | --- | --- | --- | --- | --- | --- | --- |
| O=C(N[C@@H]1c2ccccc2C[C@H]1N1CCCC1)c1ccc(-c2ccnc3[nH]ccc23)nc1 | SBK3 (Homo sapiens, UniProt P0C264) | binding, competition with immobilised ligand | – | 3 µM | – | remaining binding | 7.1% |
| COc1ccccc1-c1n[nH]c2nc(N[C@H]3CC[C@H](NS(=O)(=O)CC(C)C)CC3)ncc12 | cdc2-related kinase 12 (Leishmania donovani, UniProt A0A3S7WQK2) | competitor, bead pull-down competition | Leishmania donovani extract | 0.08 µM | baseline: vehicle | remaining binding | 13% |
